# Experimental data collected from several papers.
# A part holds a random share of what one study measured.

# Block 1 — method: protein binding microarray; molecule type: double-stranded DNA, one strand shown; sample: in vitro; concentration: not given; relative to: not given; reading: higher = stronger binding
# Target: Histone acetyltransferase KAT6A, winged helix 2, GST fusion (KAT6A, Homo sapiens, UniProt Q92794, residues 85-181)
# Setting: 8-mer, flanks averaged, mean of 2 arrays, mostly near background
# Target sequence (chain): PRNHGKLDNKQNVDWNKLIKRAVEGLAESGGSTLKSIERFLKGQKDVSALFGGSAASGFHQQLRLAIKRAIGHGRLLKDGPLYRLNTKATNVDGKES
Sequence,E-score
CGTGAGGA,-0.258
AATCCCTA,-0.0791
GAACTCTC,-0.0371
CGTTAGGA,-0.0257
ACGAAAGT,-0.0984
AAAGTGCT,-0.0208
TCCCCCGA,0.124
CCCAAATA,-0.0549
CCCGAAGA,0.0428
ATAAGCGG,-0.0283
AAACCAAA,0.243
AAATGGCA,0.127
CGCAAGAA,0.22
CCAGGCAG,0.111
ATATAGGG,-0.136
GTGACTTA,-0.138

# Block 2 — method: RNA Bind-n-Seq; molecule type: RNA; sample: in vitro; concentration: not given; setting: RNA with constant flanks, ends assumed; relative to: input RNA pool; reading: higher = stronger binding
# Target: RING finger protein unkempt homolog, zinc fingers 1-6, GST-SBP tag (UNK, Homo sapiens, UniProt Q9C0B0, residues 30-357)
# All sequences stand within: GGGAGUUCUACAGUCCGACGAUC … CAACAGAGGAUUGAGCAUCA
# Target sequence (chain): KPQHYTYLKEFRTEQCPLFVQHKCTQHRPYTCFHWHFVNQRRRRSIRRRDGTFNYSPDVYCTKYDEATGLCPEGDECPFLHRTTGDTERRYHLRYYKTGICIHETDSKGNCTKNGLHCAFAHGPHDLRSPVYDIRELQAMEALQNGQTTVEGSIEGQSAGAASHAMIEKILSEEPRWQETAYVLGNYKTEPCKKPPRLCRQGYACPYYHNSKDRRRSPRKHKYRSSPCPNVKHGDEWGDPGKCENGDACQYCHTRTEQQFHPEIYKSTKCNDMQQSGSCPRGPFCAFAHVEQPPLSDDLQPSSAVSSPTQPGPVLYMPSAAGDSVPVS
Sequence,bound/input enrichment [ratio]
CACAAGAUGGAGCAGGAAAUGACCCGGUUACAUCGCAGAGUGUCAGAGGUGGAGGCUGUGCUCCGUCAGAAGGAGGUGGAGCUGAAGGCCUCUGAGACUCAGAGAUCCCUCCUGGAGCAG,0.087
UCUGAAUCUGAACAGGCUCUUAAAGGUACUUCUCAGAUUAAAUUACUCUCAUCUGAAGAUACCGAAGGGAUGCGACUUGUAUGUAGGCUUGCUAGAGAAGUUUUGGAUGUUGCUGCCGGC,0.376
UUAAUCUCAACUAAAGAUAUAGUUCUGUGGUAGCCAUUGUUUUACAAUGAAAUAACUGCAACCCGAGAAAAAAAACUGUAUAAAAACAUUAAAUUGUCAGUAUUUUUGUAAGAUUCCGUU,0.2
ACGAACUUUCAGGCAACACCGUUAUUGAACGACCCAGACAGAUCUGUCCUUAUGUAAUUGCCGCUUUUCGAUACAGGGAAUCUAAAACUAUGGCACCACCAGCUCAUAAAAGCAUACUUG,0.215
UAUUUAUGUCAAUAUUGUGAAUAUUCAACAGGACAAAUUGAAGAUCUUAAAAUUCAUCCCGAUUUCAAGCAUUCAGCUGACUUGCCUCAUAAAUGUAGUGACUGCUUGAUGAGGUUUGGA,0.289
AGAGAAAUGAGAAAGAAUCUCACACAAGAUGAGAUGCAAAGAAUGUCUACUAGAGUCCUUUCCGCCACUCUUUCCAUCCCUAUUACUCCUGAGCGUACGGAUAUUGCUCGACUUCUGGAU,0.29
UCUGAUGGUGACCAUCAAGUUCCAGCUCCUUCAGGAAACAAAGCAGCUCUUUUGGAUCAAAUCCGAGAGGGUGCUCAGCUGAAAAAAGUGGAACAGAAUAGCCGGCCCGUGUCCUGCUCA,0.106
ACCCUGCGGAGAAAGGGCAAUAUCAUUCUAAUCCCUGAAAGAAGCAACAGCCCCGAAAACACCCGAAAUAUCUUCUACAAAGGAACCUCCCCCACACGGGCUUAUAAGGAUUGAGUGAUG,0.713
AAAGUGAUGACUAUGUUUGUCCAACGACAGGUAUUUUCGGAGAGCAAAGAUGAGAUUGCGUCCGUCCUCUAUGGCACAGAUGGCACUGAUAAUGCCCUUGCUGGCAAGGACCAGUAUCAG,0.11
UGAAGAUUCCAGAUGCUAAACAUGUAUUUACCACAUUUUAUGCUAAAACAAAAUCACUGUCCGUUAAUCCAGUGCUCUUUCCAAACCGUGAAGACUAUAUCCAUCUAAUGGGUUAUGACA,0.152
GUCACCCUCAUGAUGGAUGCCACCAACAUGCCUGCCGUCAAAGCUAUCAUAUACCAGUACACCGAAGAGAUUUAUCACCGGAUCCCCAACUCAGACCCAUCAUCAAGCAAAACCAAGCAG,0.484

# Block 3 — method: EMSA with sequencing; molecule type: double-stranded DNA, one strand shown; sample: in vitro; concentration: 10 and 20 nM; relative to: negative control set to 0; reading: higher = stronger binding
# Target: Hepatocyte nuclear factor 3-alpha (Foxa1, Mus musculus, UniProt P35582, residues 1-468, full length assumed)
# Setting: whole designed probe, mean of two concentrations, ends assumed
# All sequences stand within: GTGAGCGGTGCCCATTGATGGGGAAC … TTTCACTGGGATCGTGGGGAC
# Target sequence (chain): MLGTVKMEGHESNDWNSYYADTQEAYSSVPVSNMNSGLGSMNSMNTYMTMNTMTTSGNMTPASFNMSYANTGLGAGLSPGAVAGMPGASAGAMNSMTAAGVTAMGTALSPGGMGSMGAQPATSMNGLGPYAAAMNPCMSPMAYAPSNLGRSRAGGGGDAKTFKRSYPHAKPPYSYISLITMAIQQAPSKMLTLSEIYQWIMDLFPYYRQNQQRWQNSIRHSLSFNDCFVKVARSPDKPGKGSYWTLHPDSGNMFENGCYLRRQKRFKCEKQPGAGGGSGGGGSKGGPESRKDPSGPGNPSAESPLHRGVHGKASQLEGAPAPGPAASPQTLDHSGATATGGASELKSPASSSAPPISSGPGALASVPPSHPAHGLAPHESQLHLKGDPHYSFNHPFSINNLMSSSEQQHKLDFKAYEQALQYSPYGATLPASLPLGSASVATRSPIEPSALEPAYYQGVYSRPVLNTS
Sequence,normalised bound fraction
TTGGTACAGAAAGCATACACCAGATGGTTAACAAAAACTAATTATTGATCAGCTTATGTTAGCTATGTAAGGACTATTCTTTCATAGTTATTTGTTTACTTTGGAATATTCAAATATACTCAAATATACACACAGTACTTTGAATATATACAGAGTACACAATTTCCATACATTAAAGCAGGGGTGTCCAACC,0.522 ratio
ATCTTCCCCCTCTTCCTTGCCCCACCAGCTCACCTTCCCGGGTTATTTAAATAAAAGAGCTTAAAGGAAGCCGGCATTCGTTAACCCTCTTCTGGCGCAAACTGCTGTTTGCTCTGGATGAATCATGGTCCTTTGGCGACGCCAGGCTCCGGGAGAGCAAAGCACCGTGTCAGGGCCATGATCCGGGGTGGCC,0.244 ratio
CTGACAGCATGATTTAATGGCCTGGTTGCTCCATGAGTTGACATGGCAACCACAGAAAATGCCATAAATATCTGAGTGTGGACGTGAATGCTAAGATTACATTGTGTGTGGTGCATTGTGTGACATGTGGTGGCTGTTGTCTCTTCCAGTTGGAAACGTCTGGAATTGACAGCCATGTTTTAGAGCCATTTGG,-0.0305 ratio
TACACACGTATAAAAATGCTGCATGGGTGAGTGTGACATAGGCAAGCTCTTTAACAGGTGAAGCATCAGAGACTCCTGCTAACCTGGGAGAAAGCAAACAGCCACAGGGAGAGAACAGGGCCACGTGGAAGGGACCTGAGGACGACCTCTAGGAGTTGAGTGGGGTTTCCTGCTGACAGCTAGCAGGAAAATA,0.0956 ratio
ATAATCTGAGGTGGCGACTGGCCAGATAGCCTGCCCCTACTCACTCTGGCTGTAAAATAAGCCTACAGTATCCACAAGGGGAAATACTAACAGTGTAAACAAGCACATCAAGGTGCAGTCAAAGAAGCCAGGTCCCCACCGATGAGATGAAGAAAATAACCACCTAAGTCTCAGGTCCCTATATCTGCCTAAT,0.32 ratio
AACAGATTAGCTGATCTCTAATGGCCCTAGGAGAAGATCTTGTATTGCTTCAAAATCTTTTCTGATTCTCATCACTCAACCTTCTTGGCTATGTAAACAAAGGAAGCTTTCCTTTTGTTTTCCAGACGTTTGGAAAACAAAATTTTCCAGAGCTGTGCATCTGCCAGGAAATGTTTCTTTTAACCTGATATCA,0.506 ratio
ACAGCAACTAGGTAGAGAGAGTTCACAGTTTGTGAACTCTGTGAATCTGGTATCAGGCTGGCTGGGAGAAGGGCCTAAAGGGTGTGTGAAATGTAAACAAGGGCTTCCTGACGCTGCTCTGTGACTTGTGCTAAACTTTCTGGGGGTGGCAGACCCAGAGTAGTCATACCCAATCCATGAATCCAACATTCAC,0.416 ratio
GAAATCAGATGGGAACAAACTATTCCAATATACAAATCAAATTTCAGAGTCTGAGTGTACACAGAAAAATTACTGGATATCCTGTTGGACTATGTACTTTACAATGACACAGTGATTTATGAGGGTATGATGGGGCAGAGGGTAGCGGGTGATGTTGGAGTTGATTCATCACTTAAGCGCTAATCCATTCACC,0.0811 ratio

# Block 4 — method: aptamer microarray, sandwich; molecule type: DNA with 2'F-ANA; sample: in vitro; concentration: 200 nM; together with: Cy3 exosite-II aptamer, 400 nM; reading: higher = stronger binding; sequence: GGTTGGTGTGGTTGG
# Target: Prothrombin, mature alpha-thrombin (F2, Homo sapiens, UniProt P00734)
# Setting: whole 15-mer aptamer, many near background
Modification,mean fluorescence intensity
2'F-ANA at 2 4 5 6 7 8 9 13 15,53.1 a.u.
2'F-ANA at 2 4 7 10 11 12,120 a.u.
2'F-ANA at 1 2 3 5 6 7 8 9 10 11 12 13 14 15,50.8 a.u.
2'F-ANA at 1 2 7 8 11 14,57.5 a.u.
2'F-ANA at 3 4 5 6 8 10 13 15,77.3 a.u.
2'F-ANA at 2 3 9 10 12 13,440 a.u.
2'F-ANA at 1 2 3 8 9 10 13 14,88.1 a.u.
2'F-ANA at 3 4 5 12 13 14 15,57.1 a.u.
2'F-ANA at 2 3 5 9 10 12 13 15,55.7 a.u.
2'F-ANA at 1 2 3 4 7 11 12 13 14,71.6 a.u.
2'F-ANA at 1 4 6 8 9 11 13,78.1 a.u.
2'F-ANA at 1 2 6 7 12 14,61.1 a.u.
2'F-ANA at 1 4 8 9 11 13 15,80.7 a.u.
2'F-ANA at 2 6 9 11 14 15,97.9 a.u.
2'F-ANA at 1 3 4 5 7 10 11 12,46.6 a.u.
2'F-ANA at 3 4 5 6 10 11 13 14,48.1 a.u.
2'F-ANA at 2 3 4 5 11 14,50 a.u.
2'F-ANA at 4 9 13 15,197 a.u.
2'F-ANA at 1 2 3 4 7 9 12,374 a.u.
2'F-ANA at 1 2 3 4 6 7 8 13 14,68.4 a.u.
2'F-ANA at 1 2 3 5 6 7 13 15,51.1 a.u.
2'F-ANA at 1 2 3 5 6 7 8 12 15,140 a.u.
2'F-ANA at 2 3 4 8 10 14 15,179 a.u.
2'F-ANA at 3 4 5 8 12 15,213 a.u.
2'F-ANA at 1 3 4 7 8 14,93.5 a.u.

# A few entries again (block 4):
Modification,mean fluorescence intensity
2'F-ANA at 1 2 7 8 11 14,57.5 a.u.
2'F-ANA at 3 4 5 6 8 10 13 15,77.3 a.u.
2'F-ANA at 2 3 9 10 12 13,440 a.u.
2'F-ANA at 1 2 3 8 9 10 13 14,88.1 a.u.
